# Measurements gathered from unrelated publications.
# Compare with care: the assays were run in different laboratories. ± gives the spread as reported.
SMILES,assay,system,conditions,how to read,endpoint,result
Cc1c(-c2ccc(N3CCc4cccc(C(=O)Nc5nc6ccccc6s5)c4C3)nc2C(=O)O)cnn1CC12CC3(C)CC(C)(C1)CC(OCCNCC[C@H](O)CO)(C3)C2,,anesthetized male beagle dogs,"intravenous infusion, 0.3 mg/kg/min, 30 min",reference: vehicle,PR interval change,-1 ms
CCCC1CCC(c2ccc(-c3ccc(CC)cc3)cc2)CC1 (stereo not drawn),measured: compound,"human pregnant women, male fetuses, cord serum","dose not given, paired maternal-cord samples, mean",,concentration,1.34 ng/mL
N#Cc1ccc2c(c1)[C@H]1CCCN(C(=O)c3ccc4[nH]cnc4c3)[C@H]1C2,,human,"160 mg, day 7",,minimum ACTH level,2.9 pmol/L
Cc1ccc(C(=O)N(CCCN)C(c2nc3snc(C)c3c(=O)n2Cc2ccccc2)C(C)C)cc1 (stereo not drawn),mucosal inflammation grade ≥3 (CTCAE),human patients,"intravenous, 7 mg/day",,patients with adverse event,0%
CNC(=O)c1ccc(-c2cnc3ncc(Cc4ccc5ncccc5c4)n3n2)cc1F,ultrafiltration,"human mild hepatic function, plasma","oral, 200 mg, 3 h post-dose, geometric mean",,fraction unbound,0.031
COc1cc2nccc(Oc3ccc(NC(=O)c4cc5c(n(-c6ccccc6)c4=O)CCCC5=O)nc3)c2cc1OC,,relapsed or refractory AML,"oral, 10 mg once daily",,grade ≥3 Anaemia patients,28.6%
CC(C)(Sc1ccncc1-c1ccc(C#N)c2ccccc12)C(=O)O,,"human, urine","oral, 10 mg, added: febuxostat 40 mg",,fraction excreted in urine (0-24 h),1.53%
Cc1ccc(Sc2ccccc2N2CCNCC2)c(C)c1,measured: any TEAE,healthy adult men,"oral, 10 mg daily, 12 days",,participants with TEAE,16.7%
CC(C)C(=O)O[C@H]1[C@H](C)OC(=O)[C@@H]1Cc1ccccc1,,light clay soil,"pH 7.3, OC 5.6%",,Freundlich KF,3.3 mL/g
CC(C)(C(=O)N1CCOc2c(C#N)cncc2C1)C(F)F,measured: Ecchymosis,human,"oral, 20 mg twice daily, 14 days, multiple ascending dose",,subjects with adverse event,0%
COc1cc(C(=O)NC2CCN(C)CC2)c(F)cc1Nc1ncc(C(F)(F)F)c(Oc2cccc3c2C(=O)N(C)C3)n1,,"human patients, plasma","oral, 10 mg single dose, geometric mean",,dose-normalised Cmax,4.48 nmol/L per mg
Cn1ncc(S(=O)(=O)NC2(c3cc(F)cc(Br)c3)CC2)c1C(=O)O,"colloidal aggregate formation, dynamic light scattering",50 mM potassium phosphate buffer,"200 µM, pH 7.0, 1% DMSO",higher = more aggregation,DLS scattered light intensity,435000 counts/s
Cn1cc(Nc2nccc(-c3ccc4c(c3)CN(C3COC3)CC[C@H]4NC(=O)c3cn(C(C)(C)C)nn3)n2)cn1,,"human, whole blood","150 mg twice daily, day 7",reference: pre-dose baseline,plasma cell count change,-73.7%
CO/N=C(\C(=O)N[C@@H]1C(=O)N2C(C(=O)[O-])=C(C[N+]3(C)CCCC3)CS[C@H]12)c1csc(N)n1,,human whole blood,"concentration not given, 24 h, 4 °C",,deviation from nominal concentration,11.1%
CCO[C@H]1CCN(Cc2c(OC)cc(C)c3[nH]ccc23)[C@H](c2ccc(C(=O)O)cc2)C1,,"PNH patients, active haemolysis","oral, 25 mg, 4 weeks, treatment",,incidence of oropharyngeal pain,14.3%
Cn1ncc(S(=O)(=O)NCc2ccn(-c3ccc(Br)cc3)n2)c1C(=O)O,"colloidal aggregate formation, dynamic light scattering",50 mM potassium phosphate buffer,"200 µM, pH 7.0, 1% DMSO",higher = more aggregation,DLS scattered light intensity,751000 counts/s
CCc1cc(C(=O)NC)c2nccc(N3CCc4c(cc(Cn5ccnc5)cc4-c4cn(C)nc4C(F)(F)F)C3=O)c2c1,,Sprague Dawley rats,"oral, 50 mg/kg once daily, 7 days",,blood MCHC,300 ± 4.86 g/L
CC(C)NCC(O)COc1cccc2ccccc12 (stereo not drawn),,"male Hartley guinea pig, anaesthetized","intravenous infusion, 3 mg/kg, 10 min infusion, post-infusion",,QTc interval,350 ± 0.4 ms
O=S(=O)(NC1(CC(F)(F)F)CC1)c1cccc(Cl)c1O,"colloidal aggregate formation, dynamic light scattering",50 mM potassium phosphate buffer,"200 µM, pH 7.0, 1% DMSO",higher = more aggregation,DLS scattered light intensity,621000 counts/s
CCNCCCNC/C=C\CNCCCNCC,LC-MS/MS,"cancer patients, plasma","intravenous infusion, 100 mg, 60 min infusion, median, cycle 1",,volume of distribution,5.22 L/kg
CN(CC#N)C(=O)C[C@H](Nc1nc2ccccc2[nH]1)c1cccc(C(F)(F)F)c1,,human,"intravenous infusion, 5 mg/kg, 1 mg/mL formulation",,apparent clearance,17.2 ± 4.71 L/h
O=S(=O)(NCc1ccnn1C1CC1(F)F)c1cccc(Cl)c1O (stereo not drawn),"colloidal aggregate formation, dynamic light scattering",50 mM potassium phosphate buffer,"200 µM, pH 7.0, 1% DMSO",higher = more aggregation,DLS scattered light intensity,388000 counts/s
O=C(O)CCCCCCCCCCCCCCCCC(=O)O,,"human, plasma",endogenous baseline diurnal,,daily mean concentration,86.4 ± 5.3 nM
COc1nc(-c2cc(C)c(N[C@@H](C)c3cc(F)cc(F)c3)nn2)ccc1-n1cnc(C)c1,,"CD-1 mouse, male, plasma","oral, 5 mg/kg",,Vss,3.6 L/kg
C#Cc1cccc(Nc2ncnc3cc(OCCOC)c(OCCOC)cc23)c1,,"human, plasma",oral,,conversion to OSI-420,~10%
Cc1c(C(=O)O)ccc2c3n(nc12)[C@@H]1[C@H](C3)N(CC2CC2)[C@@]2(C(=O)Nc3cc(Cl)ccc32)[C@H]1c1cccc(Cl)c1F,,"female BALB/c nude mice, SJSA-1 xenograft, plasma","oral, 2 mg/kg once daily, mean",,AUC(0-t),31.1 µM·h
CC(C)NCCCC[C@@H]1NC(=O)[C@H](Cc2ccc(O)cc2)NC(=O)[C@H](Cc2ccccc2)NC(=O)CC[C@H](C(=O)N[C@@H](CCCCNC(C)C)C(=O)N[C@@H](CCCCNC(=O)[C@H](CCC(=O)O)NC(=O)[C@H](CCC(=O)O)NC(=O)[C@H](CCC(=O)O)NC(=O)CN2CCN(CC(=O)O)CCN(CC(=O)O)CCN(CC(=O)O)CC2)C(N)=O)NC(=O)CNC(=O)[C@H](Cc2ccc3ccccc3c2)NC(=O)[C@@H](CCCNC(=N)N)NC1=O [gallium-68 labelled],,"mouse with PC-3 xenograft, blood","intravenous, 1 h",,tissue uptake,0.56 %ID/g
Cl.[2H]C([2H])([2H])CC(=O)c1cnc(NC(=O)C2CC2)cc1Nc1cccc(-c2ncn(C([2H])([2H])[2H])n2)c1OC,,"human, plasma","oral, 30 mg twice daily, day 14, nonfasted, tablet, geometric mean",,Ctrough,54.2 ng/mL
C/C(O)=C(\C#N)C(=O)Nc1ccc(C(F)(F)F)cc1,,"CD-1 mice female, whole blood","oral, 10 mg/kg leflunomide daily, 24 h, after dose 10",,blood concentration,90.7 ± 13.7 µM
CCCCNC(=O)NS(=O)(=O)c1cccs1,haemolysis,sheep erythrocytes,"1 h, pH 7.5",,HC50,> 128 µg/mL
Cn1cc([C@H]2C[C@H]3CSC(N)=N[C@@]3(c3ccc(F)cc3F)CO2)cn1,,"male 129/SVE mouse, CSF","subcutaneous, 10 mg/kg, 9 h",,CSF concentration,8 nM
CCCCOc1nc(N)c2c(n1)N(Cc1cccc(CN3CCCC3)c1)CC(=O)N2,,human,added: vorinostat,reference: compound alone,"Cmax, AUCinf, Tmax, t1/2",no effect
CCc1nc(C(N)=O)c(Nc2ccc(N3CCC(N4CCN(C)CC4)CC3)c(OC)c2)nc1NC1CCOCC1,,mouse plasma,"425 ng/mL, 6 h, 25 °C",,bench-top stability accuracy,97.5%
COC1=C(OC)[C@H](O)[C@H](C/C=C(\C)CC/C=C(\C)CCC=C(C)C)[C@@H](C)C1=O,,"Balb/c mice male, whole blood","oral, 50 mg/kg, 4 h",,blood concentration,0.0245 µM
CCOc1c([C@H](C)n2nc(C)c3c(N)ncnc32)cc(Cl)c(F)c1[C@@H]1CNC(=O)C1,,"patients, monotherapy","oral, 20 mg once daily, cycle 1 day 15",,half-life geometric mean,8.66 h
NC1(C(=O)N[C@@H](CCO)c2ccc(Cl)cc2)CCN(c2nc[nH]c3nccc2-3)CC1,,metastatic CRPC patients,"dose not given, any grade, treatment-related, all doses, added: enzalutamide 160 mg daily",,incidence of Diarrhoea,66.7%
O=C(COc1ccc(Cl)cc1)NC12CC(c3nnc([C@H]4C[C@@H](OC(F)(F)F)C4)o3)(C1)C2,,human both sexes,"oral, 100 mg once daily, 14 days",,participants with TEAE,100%
COc1cccc(OC)c1-c1cc(C(=O)NC2(C(=O)O)C3CC4CC(C3)CC2C4)nn1-c1ccc(C(=O)N(C)CCCN(C)CCCN(C)C(=O)CN2CCN(CC(=O)[O-])CCN(CC(=O)[O-])CCN(CC(=O)[O-])CC2)cc1C(C)C.[177Lu+3] (stereo not drawn),,mouse HT-29 xenograft,"72 h, biodistribution",reference: tumour over large intestine,tumour-to-large intestine ratio,58.2
Cn1cc(-c2cn3nccc3c(-c3cnn([C@]4(CC#N)C[C@@H](C#N)C4)c3)n2)cn1,,"human, urine","oral, 30 mg once daily, day 10, dosing interval geometric mean",,fraction excreted unchanged in urine,0.7%
